Experimental data of several laboratories.
Protocols differ between the studies behind these lines. ± gives the spread as reported.

CC1OC(Oc2c(-c3ccc(O)cc3)oc3cc(O)cc(O)c3c2=O)C(OC(=O)C=Cc2ccc(O)cc2)C(O)C1OC(=O)C=Cc1ccc(O)cc1 (stereo not shown)
CD8 T cells (flow cytometry; mouse C57BL/6, orthotopic Hepa1-6, tumour; dose not given; reference: vehicle): 2 fold

CCCC[C@H](NC(=O)[C@@H](NC(=O)[C@H](CC(=O)O)NC(=O)[C@H](CCC(N)=O)NC(=O)[C@H](CC(C)C)NC(=O)[C@H](CC(C)C)NC(=O)[C@H](CCCN)NC(=O)[C@H](CCCNC(=N)N)NC(=O)[C@H](C)NC(=O)[C@H](CO)NC(=O)[C@H](CC(C)C)NC(=O)[C@H](CCC(N)=O)NC(=O)[C@H](CC)NC(=O)[C@H](CC(C)C)NC(=O)[C@@H](NC(=O)[C@H](CCCN)NC(=O)[C@H](CCCNC(=N)N)NC(=O)[C@H](Cc1ccc(O)cc1)NC(=O)[C@H](CO)NC(=O)[C@H](CC(N)=O)NC(=O)[C@@H](NC(=O)[C@H](Cc1ccccc1)NC(=O)[C@@H](NC(=O)[C@H](C)NC(=O)[C@H](CC(=O)O)NC(=O)[C@@H](CC)NC(=O)CCc1ccc(O)cc1)[C@@H](C)CC)[C@@H](C)O)C(C)C)[C@@H](C)CC)C(=O)N[C@@H](CO)C(=O)N[C@@H](CCCNC(=N)N)C(=O)NCCCC(N)=O
relative potency (GH release; rat, male, serum; subcutaneous, 3 µg/kg, 15 min; reference: reference GHRH agonist JI-38): 0.83

CSCC[C@H](NC(=O)[C@H](CO)NC(=O)[C@@H](N)CO)C(=O)N[C@@H](CCCCN)C(=O)N[C@@H](CC(C)C)C(=O)N[C@@H](CO)C(=O)N[C@@H](Cc1ccccc1)C(=O)N[C@@H](CCCNC(=N)N)C(=O)N[C@@H](C)C(=O)N[C@@H](CCCNC(=N)N)C(=O)N[C@@H](C)C(=O)N[C@@H](Cc1ccc(O)cc1)C(=O)NCC(=O)N[C@@H](Cc1ccccc1)C(=O)N[C@@H](CCCNC(=N)N)C(=O)NCC(=O)N1CCC[C@H]1C(=O)NCC(=O)N1CCC[C@H]1C(=O)N[C@@H](CCC(N)=O)C(=O)N[C@@H](CC(C)C)C(=O)O
ED50 (glucose tolerance; DIO mouse; 0.1 to 1.0 µg/g): ~0.41 µg/g body weight

O=C1c2c(cc(O)c3c2oc2cc(O)c(O)cc23)OC1Cc1ccccc1 (stereo not shown)
EC50 (ABTS scavenging, absorbance): 1060 µM

Cc1ccc([C@@H]2O[C@H](CO)[C@@H](O)[C@H](O)[C@H]2O)cc1Cc1ccc(-c2ccc(F)cc2)s1
serum ALP activity (rabbit, STZ-nicotinamide type 2 diabetes, serum; dose not given, 28 days): 168 ± 1.74 U/L

CCCCCCCCCC(=O)NCCCC[C@H](NC(=O)[C@H](CC(C)C)NC(=O)[C@H](CCCCN)NC(=O)[C@H](CCCCNC(=O)[C@H](CC(C)C)NC(=O)[C@H](CCN)NC(=O)[C@H](CCCCNC(=O)[C@H](Cc1ccccc1)NC(=O)[C@@H](N)CCCN)NC(=O)[C@H](Cc1ccccc1)NC(=O)[C@@H](N)CCCN)NC(=O)[C@H](CC(C)C)NC(=O)[C@H](CCN)NC(=O)[C@H](CCCCNC(=O)[C@H](Cc1ccccc1)NC(=O)[C@@H](N)CCCN)NC(=O)[C@H](Cc1ccccc1)NC(=O)[C@@H](N)CCCN)C(N)=O
leakage (carboxyfluorescein release; EYPG vesicles; 10 µg/mL, 250 s, pH 7.4, 25 °C; reference: Triton X-100): 64%

CC(=N)N(C)c1ccc(C(=O)Nc2ccc(C)cc2C(=O)Nc2ccc(Cl)cn2)cc1
concentration doubling prothrombin time (human plasma): 0.08 ± 0.02 µM

CCCCC1NC(=O)c2ccccc21 (racemic)
black tail length (thrombosis; mouse, carrageenan-induced thrombosis; oral, 50 mg/kg daily for 2 days, 24 h after carrageenan): 3.1 ± 0.9 cm

CCCC[C@H](NC(=O)[C@@H](NC(=O)[C@H](CC(=O)O)NC(=O)[C@H](CCC(N)=O)NC(=O)[C@H](CC(C)C)NC(=O)[C@H](CC(C)C)NC(=O)[C@H](CCCN)NC(=O)[C@H](CCCNC(=N)N)NC(=O)[C@H](C)NC(=O)[C@H](CO)NC(=O)[C@H](CC(C)C)NC(=O)[C@H](CCC(N)=O)NC(=O)[C@H](CC)NC(=O)[C@H](CC(C)C)NC(=O)[C@@H](NC(=O)[C@H](CCCN)NC(=O)[C@H](CCCNC(=N)N)NC(=O)[C@H](Cc1ccc(O)cc1)NC(=O)[C@H](CO)NC(=O)[C@@H](NC(=O)[C@@H](NC(=O)[C@H](Cc1ccccc1)NC(=O)[C@@H](NC(=O)[C@H](C)NC(=O)[C@H](CC(=O)O)NC(=O)[C@@H](C)NC(=O)[C@H](Cc1ccc(O)cc1)NC)[C@@H](C)CC)[C@@H](C)O)[C@@H](C)O)C(C)C)[C@@H](C)CC)C(=O)N[C@@H](CC(=O)O)C(=O)N[C@@H](CCCNC(=N)N)C(=O)NC
relative potency (GH release; rat, male, serum; subcutaneous, 3 µg/kg, 30 min; reference: reference GHRH agonist JI-38): 3.25

CC(C)(CCCC/C=C/CCCCCC(C)(C)C(=O)O)C(=O)O
serum TG, TC, LDL-C (golden hamsters, high-fat high-cholesterol diet; oral, 10 mg/kg, 2 weeks; reference: vehicle): decreased

Some of these lines once more:
CCCC[C@H](NC(=O)[C@@H](NC(=O)[C@H](CC(=O)O)NC(=O)[C@H](CCC(N)=O)NC(=O)[C@H](CC(C)C)NC(=O)[C@H](CC(C)C)NC(=O)[C@H](CCCN)NC(=O)[C@H](CCCNC(=N)N)NC(=O)[C@H](C)NC(=O)[C@H](CO)NC(=O)[C@H](CC(C)C)NC(=O)[C@H](CCC(N)=O)NC(=O)[C@H](CC)NC(=O)[C@H](CC(C)C)NC(=O)[C@@H](NC(=O)[C@H](CCCN)NC(=O)[C@H](CCCNC(=N)N)NC(=O)[C@H](Cc1ccc(O)cc1)NC(=O)[C@H](CO)NC(=O)[C@H](CC(N)=O)NC(=O)[C@@H](NC(=O)[C@H](Cc1ccccc1)NC(=O)[C@@H](NC(=O)[C@H](C)NC(=O)[C@H](CC(=O)O)NC(=O)[C@@H](CC)NC(=O)CCc1ccc(O)cc1)[C@@H](C)CC)[C@@H](C)O)C(C)C)[C@@H](C)CC)C(=O)N[C@@H](CO)C(=O)N[C@@H](CCCNC(=N)N)C(=O)NCCCC(N)=O
relative potency (GH release; rat, male, serum; subcutaneous, 3 µg/kg, 15 min; reference: reference GHRH agonist JI-38): 0.83
